Measured values pooled from the literature.
Compare with care: the assays were run in different laboratories. Numbers after ± are the reported error.
Target: PA-I galactophilic lectin (lecA, Pseudomonas aeruginosa, UniProt Q05097)
Residues used in one study (Q05097 1-122): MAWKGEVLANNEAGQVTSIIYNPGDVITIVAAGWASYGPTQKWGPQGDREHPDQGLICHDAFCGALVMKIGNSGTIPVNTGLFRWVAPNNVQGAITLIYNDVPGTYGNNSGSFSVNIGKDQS

O=C(O)[C@H]1O[C@@H](c2cn([C@H]3[C@H](O)[C@@H](O)[C@H](n4cc([C@@H]5O[C@H](C(=O)O)[C@@H](n6cc(CO[C@@H]7O[C@H](CO)[C@H](O)[C@H](O)[C@H]7O)nn6)[C@H](O)[C@H]5O)nn4)O[C@@H]3CO)nn2)[C@H](O)[C@@H](O)[C@@H]1n1cc(CO[C@@H]2O[C@H](CO)[C@H](O)[C@H](O)[C@H]2O)nn1
IC50 (protein-protein interaction, inhibitor, ELISA): 0.031 µM

C#Cc1ccc(O[C@@H]2O[C@H](CO)[C@H](O)[C@H](O)[C@H]2O)cc1
Kd (binding, ITC): 7.3 µM

O=C(COCCCCc1ccccc1)N[C@@H](Cc1cn(CCNC(=O)c2ccc(S[C@@H]3O[C@H](CO)[C@H](O)[C@H](O)[C@H]3O)cc2)nn1)C(=O)NCCO
IC50 (ligand displacement, FP): 39.3 µM

[N-]=[N+]=N[C@H]1[C@H](O)[C@@H](O)[C@H](n2cc(CO[C@@H]3O[C@H](CO)[C@H](O)[C@H](O)[C@H]3O)nn2)O[C@@H]1CO
Kd (binding, ITC; pH 7.5): 6.2 µM

[N-]=[N+]=NCCNC(=O)c1ccc(S[C@@H]2O[C@H](CO)[C@H](O)[C@H](O)[C@H]2O)cc1
Kd (binding, SPR): 6.7 µM

OC[C@H]1OC(O)[C@H](O)[C@@H](O)[C@H]1O (stereo partly shown)
Kd (differential pulse voltammetry): 52 ± 10 µM

NC[C@H]1O[C@@H](c2cn([C@H]3[C@H](O)[C@@H](O)[C@H](n4cc([C@@H]5O[C@H](CN)[C@@H](n6cc(CO[C@@H]7O[C@H](CO)[C@H](O)[C@H](O)[C@H]7O)nn6)[C@H](O)[C@H]5O)nn4)O[C@@H]3CO)nn2)[C@H](O)[C@@H](O)[C@@H]1n1cc(CO[C@@H]2O[C@H](CO)[C@H](O)[C@H](O)[C@H]2O)nn1
Kd (binding, ITC): 0.056 µM

O=C(COc1ccccc1)N[C@@H](Cc1cn(CCNC(=O)c2ccc(S[C@@H]3O[C@H](CO)[C@H](O)[C@H](O)[C@H]3O)cc2)nn1)C(=O)NCCO
IC50 (ligand displacement, FP): 49 µM

OC[C@H]1O[C@@H](OCc2cn([C@H]3[C@H](O)[C@@H](O)[C@H](c4cn([C@H]5[C@H](O)[C@@H](O)[C@H](n6cc([C@@H]7O[C@H](C[n+]8ccccc8)[C@@H](n8cc(CO[C@@H]9O[C@H](CO)[C@H](O)[C@H](O)[C@H]9O)nn8)[C@H](O)[C@H]7O)nn6)O[C@@H]5CO)nn4)O[C@@H]3C[n+]3ccccc3)nn2)[C@H](O)[C@@H](O)[C@H]1O
IC50 (protein-protein interaction, inhibitor, ELISA): 0.0052 µM

OC[C@H]1O[C@@H](Oc2ccc(OCCc3cn([C@H]4[C@H](O)[C@@H](O)[C@H](c5cn([C@H]6[C@H](O)[C@@H](O)[C@H](n7cc(CCOc8ccc(O[C@@H]9O[C@H](CO)[C@H](O)[C@H](O)[C@H]9O)cc8)nn7)O[C@@H]6CO)nn5)O[C@@H]4CO)nn3)cc2)[C@H](O)[C@@H](O)[C@H]1O
Kd (binding, ITC; pH 7.5): 0.035 µM

Repeated from above:
[N-]=[N+]=N[C@H]1[C@H](O)[C@@H](O)[C@H](n2cc(CO[C@@H]3O[C@H](CO)[C@H](O)[C@H](O)[C@H]3O)nn2)O[C@@H]1CO
Kd (binding, ITC; pH 7.5): 6.2 µM
